Assay results collected from several papers.
Numbered parts are unrelated; each lists some results of a single study. Positions count from the first letter of the parent shown.

Sample 1 — target: ATF3, bZIP domain (human); method: DHFR protein complementation; sample: yeast; reference: wild-type JUN-FOS pair; direction: higher = stronger binding
Notes: single substitutions, most at no-binding floor
Starting sequence: JUN, bZIP domain (human); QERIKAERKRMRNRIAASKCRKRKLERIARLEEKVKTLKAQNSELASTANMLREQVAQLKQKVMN; partner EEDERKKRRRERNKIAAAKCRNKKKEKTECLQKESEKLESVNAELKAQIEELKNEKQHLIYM
For `A29L`, the binding fitness was -0.387 natural log.
For `V56Q`, the binding fitness was -1.46 natural log.
`A49H` has a binding fitness of -0.346 natural log.
With `E32Y` the binding fitness was -0.459 natural log.
`A40G` has a binding fitness of -0.339 natural log.
The binding fitness of `A49Y` is reported as -0.107 natural log.
`A40Q` has a binding fitness of -0.079 natural log.
`T48W` gave a binding fitness of -0.364 natural log.
The binding fitness of `R30K` is reported as -0.21 natural log.
For `K34Q`, the binding fitness was -0.328 natural log.
`K34W` gave a binding fitness of -0.0117 natural log.
With `A29S` the binding fitness was -0.174 natural log.

Sample 2 — method: RNA Bind-n-Seq; molecule type: RNA; sample: in vitro; concentration: 200 nM; notes: whole 134-nt RNA, ends assumed; added: 150 mM KCl; reference: input library; direction: higher = stronger binding
Target: Ras GTPase-activating protein-binding protein 1, full length (G3BP1, Homo sapiens, UniProt Q13283)
Chain of UniProt Q13283 (whole entry, looked up): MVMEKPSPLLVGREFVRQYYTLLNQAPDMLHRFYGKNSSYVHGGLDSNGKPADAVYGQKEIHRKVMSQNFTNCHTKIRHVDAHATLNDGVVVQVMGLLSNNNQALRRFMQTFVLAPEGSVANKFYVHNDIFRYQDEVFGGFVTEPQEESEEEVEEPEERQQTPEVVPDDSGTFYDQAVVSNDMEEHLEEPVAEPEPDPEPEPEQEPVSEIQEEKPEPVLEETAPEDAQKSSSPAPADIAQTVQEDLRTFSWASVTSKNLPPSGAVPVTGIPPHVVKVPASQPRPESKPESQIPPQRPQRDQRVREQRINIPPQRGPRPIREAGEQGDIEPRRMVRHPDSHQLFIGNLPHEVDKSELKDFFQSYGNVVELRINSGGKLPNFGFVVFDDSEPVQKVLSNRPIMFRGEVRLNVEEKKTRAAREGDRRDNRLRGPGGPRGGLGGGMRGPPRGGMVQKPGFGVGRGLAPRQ
Constant ends, left off below: GGGAGUUCUACAGUCCGACGAUC … UGGAAUUCUCGGGUGUCAAGG
For `AAGUCCUGUGCUACACAUCGUAUGUACCGAAUCGGGCCCCGGGCCCCGGGCCCCGGAAAGUAUUAUGUUACGCCGUUCGGAUCUGCACUU`, the log2 enrichment was -1.21.
With `UUGCCCUGGUGGCAUGCGGGGAGGAAGAGGUGGCCUCAUGGAUCGUGGUGGUCCCGGUGGAAUGUUCAGAGGUGGCCGUGGUGGAGACAG` the log2 enrichment was 0.123.
With `GCAGGAAGUAAAAACAAAUGGAAAUGCUUCGGAUAGUGGCAGGGGUGGGGGUUGCUAAGGAAAGGGUGGGAUGGAAGUGGGUAAAGAGUU` the log2 enrichment was 0.955.
For `UUCCUCAAGUCCUGUGCUACACAUCGUAUGUACCGAAUCGGUGGUGGGUGGAAAGUAUUAUGUUACGCCGUUCGGAUCUGCACUUCCAGC`, the log2 enrichment was -0.163.
With `GCAGGAAGUAAAAACAAAUGGAAAUGCUUCGGAUAGUGGCAGGGGUGGGGGUUGCUAAGGAAAGGGAAAGAUGGGAGUGGGUAAAGAGUU` the log2 enrichment was 0.586.
The log2 enrichment of `UAUUAAUUUGAUAUAUUUAUUAUGAUUUGUAGAGGACGUCGGUGAUGAAGGAGAAGAAGAAAAAGAAUUCAUUUCCUAUAACAUCAACAU` is reported as -1.71.
`CAAGUCCUGUGCUACACAUCGUAUGUACCGAAUCAAACCCAAAUUUAAACCCAAAAAAGUAUUAUGUUACGCCGUUCGGAUCUGCACUUC` has a log2 enrichment of -0.352.
`UAACUUUAGAGGAGGAUCUGAUGGAUAUGGCAGUGGACGUGGAUUUGGGGAUGGCUAUAAUGGGUAUGGAGGAGGACCUCGAGGUGGCAA` has a log2 enrichment of -0.0586.
The log2 enrichment of `UGGGGGGUGGAUUUUGUUUAUUUUUUUAGCUCAUUUCCAGGGGUGGGAAUUUUUUUUUAAUAUGUGUCAUGAAUAAAGUUGUUUUUGAAA` is reported as 0.393.
`UGUGCUACACAUCGUAUGUACCGAAUCGGGGUUUUUGGGGAAAAAAAGGGGAAAAAAAGGGGAAAGUAUUAUGUUACGCCGUUCGGAUCU` gave a log2 enrichment of -0.292.
`UAACUUUAGAGGAGGAUCUGAUGGAUAUGGCAGUGGACGUGGAUUUGGGGAUGGCUAUAAUGGGUAUGGAGGAGGACCUGGAGGCGGCAA` gave a log2 enrichment of 0.202.
`CCAGGAAGUAAAAACAAAUGGAAAUGCUUCGGAUAGUGGCAGGGGUGGGGGUUGCUAAGGAAAGGGUGGGAUGGGAGUGGGUAAAGAGUU` gave a log2 enrichment of 1.1.
`UCCUCAAGUCCUGUGCUACACAUCGUAUGUACCGAAUCGGAGGGGAGGGAGGAAAGUAUUAUGUUACGCCGUUCGGAUCUGCACUUCCAG` gave a log2 enrichment of 0.22.

Sample 3 — method: protein-binding microarray; molecule type: double-stranded DNA, one strand shown; sample: in vitro; concentration: 2200 nM top; notes: 60-bp whole probe; added: salmon DNA 0.4 mg/ml; reference: random background probes; direction: higher = stronger binding; constant ends, left off below: GCCTAGCAC … GTCTTGATTCGCTTGACGCTGCTG
Target: Interferon regulatory factor 7, full length, phosphomimetic (IRF7, Homo sapiens, UniProt Q92985, residues 1-503, S471D/S472D/S475D/S476D/S477D/S483D/S484D/S487D)
Chain of UniProt Q92985 (whole entry, unmodified, looked up): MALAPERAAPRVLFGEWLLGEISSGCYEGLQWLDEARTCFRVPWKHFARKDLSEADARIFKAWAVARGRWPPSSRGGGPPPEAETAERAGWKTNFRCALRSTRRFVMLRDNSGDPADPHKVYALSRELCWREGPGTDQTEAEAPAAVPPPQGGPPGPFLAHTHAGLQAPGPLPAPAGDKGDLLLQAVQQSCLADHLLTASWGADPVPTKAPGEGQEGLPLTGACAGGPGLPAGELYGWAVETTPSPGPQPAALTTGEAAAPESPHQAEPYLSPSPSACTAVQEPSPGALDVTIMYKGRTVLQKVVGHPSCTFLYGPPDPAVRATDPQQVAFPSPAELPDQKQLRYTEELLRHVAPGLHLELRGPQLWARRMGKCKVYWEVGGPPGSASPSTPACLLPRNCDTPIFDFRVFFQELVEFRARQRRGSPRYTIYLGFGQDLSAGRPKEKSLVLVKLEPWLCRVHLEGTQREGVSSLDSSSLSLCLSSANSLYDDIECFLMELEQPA
`TTTTCACTTTCTTTAACATAGTGCTAG`: “fitted relative affinity” 5.51 z-score.
Under “fitted relative affinity”, `GAGGGTCTCCTTTTCCTGACGTGCTAG` is recorded as 0.602 z-score.
`TTATATACCTGTATATCTTCGTGCTAG`: “fitted relative affinity” 1.02 z-score.
Under “fitted relative affinity”, `GACGGTATCCTTTTCGTGACGTGCTAG` is recorded as 1.4 z-score.
`TTAGGACTGCTTATCCTTAAGTGCTAG` — result for “fitted relative affinity”: 0.323 z-score.
For `GACGGTTTCGTTTCCGGGACGTGCTAG`, “fitted relative affinity” read 9.46 z-score.
Under “fitted relative affinity”, `TTACGTTTCGGTTTCGGTTAGTGCTAG` is recorded as 15.2 z-score.
`GACGGTCTCAGTATCGGGACGTGCTAG` — result for “fitted relative affinity”: -0.0439 z-score.
For `TGAGGTTTTCTAATGTTTTTGTGCTAG`, “fitted relative affinity” read 0.552 z-score.
`GACGGATTGCTTCTCCTGACGTGCTAG` — result for “fitted relative affinity”: 0.834 z-score.
Under “fitted relative affinity”, `AACGGTTTCGACTATCGGGACGTGCTA` is recorded as 3.73 z-score.
`AAAGTTTTTCATTTTTTTTCGTGCTAG`: “fitted relative affinity” 1.24 z-score.
For `TTAGGAATCGACACTGGGTTAGTGCTA`, “fitted relative affinity” read -0.47 z-score.

Sample 4 — target: CCNE1, cyclin fold, Cln2 fusion (human); method: yeast growth competition, sequencing; sample: yeast; notes: weak parent motif; reference: not given; direction: higher = stronger binding
Starting sequence: FOXM1 docking peptide (human); PHLARPIKVESPP
For `P1A`, “normalised enrichment score” read -0.184.
For `S11A`, “normalised enrichment score” read 0.0307.
`H2A`: “normalised enrichment score” -0.213.
For `P13A`, “normalised enrichment score” read -0.249.
For `L3A`, “normalised enrichment score” read -0.0795.
For `V9A`, “normalised enrichment score” read -0.202.

Repeated from above (sample 3):
For `GACGGTTTCGTTTCCGGGACGTGCTAG`, “fitted relative affinity” read 9.46 z-score.
Under “fitted relative affinity”, `TTACGTTTCGGTTTCGGTTAGTGCTAG` is recorded as 15.2 z-score.
`GACGGTCTCAGTATCGGGACGTGCTAG` — result for “fitted relative affinity”: -0.0439 z-score.
For `TGAGGTTTTCTAATGTTTTTGTGCTAG`, “fitted relative affinity” read 0.552 z-score.
